Published values from different studies.
Lines come from different studies, so protocols differ. ± gives the spread as reported.

| SMILES | test | system | setting | how to read | measurement | value |
| --- | --- | --- | --- | --- | --- | --- |
| C[C@@H]1CC[C@H]2[C@@H](C)CO[C@@H]3O[C@@]4(C)CC[C@@H]1[C@]32OO4 | refers to: compound | rat, plasma | 800 ng/mL spiked, 30 days, long-term storage at -80 °C | – | measured concentration | 827 ± 35.2 ng/mL |
| CC[C@H](C)C(=O)N1CCC(NC(=O)Nc2ccc(OC(F)(F)F)c(F)c2)CC1 | – | human, fed, plasma | oral, 8 mg, single dose tablet, geometric mean | – | AUC(0-48h) | 1930 ng·h/mL |
| CSCC[C@@H]1NC(=O)[C@@H]2CSSC[C@H](NC(=O)[C@H](CO)NC(=O)[C@H](C)N)C(=O)N[C@@H](CCCNC(=N)N)C(=O)N[C@@H]([C@@H](C)O)C(=O)N3CCC[C@H]3C(=O)N[C@@H](CCCCN)C(=O)N[C@@H](CC(=O)O)C(=O)N[C@H]3CSSC[C@H](NC(=O)[C@H](CCCCN)NC(=O)[C@H](CCCNC(=N)N)NC(=O)[C@H](CC(N)=O)NC1=O)C(=O)N[C@@H](CCCCN)C(=O)N[C@H]1CSSC[C@H](NC(=O)[C@@H]4CCCN4C(=O)[C@H](CC(=O)O)NC(=O)[C@H](C)NC3=O)C(=O)N[C@@H](C)C(=O)N[C@@H](CCCCN)C(=O)N[C@@H](CCC(=O)O)C(=O)N[C@@H]([C@@H](C)O)C(=O)NCC(=O)N[C@@H](CSSC[C@@H](C(N)=O)NC(=O)[C@H](CCCNC(=N)N)NC(=O)[C@H](CC(N)=O)NC1=O)C(=O)N1CCC[C@H]1C(=O)N[C@@H](Cc1ccc(O)cc1)C(=O)NCC(=O)N[C@@H](CCCCN)C(=O)N2 | – | DA rat, pristane-induced arthritis, serum | subcutaneous, single 0.1 mg/kg at onset, end of 21-day trial | – | LDH | 582 U/L |
| [2H]C([2H])([2H])C([2H])([2H])C([2H])([2H])OC(C(=O)OC1CCNCC1)(c1ccccc1)c1ccccc1 | refers to: vomiting | healthy Japanese male | oral, 10 mg, 16 days, multiple ascending dose | – | adverse drug reactions | 0% |
| CCNc1cc2[o+]c3cc(NCC)c(C)cc3c(-c3ccccc3C(=O)OCCOCC[18F])c2cc1C | – | rat, spleen | 30 min | – | tissue uptake | 2.01 ± 0.17 %ID/g |
| CC(C)[C@H](NC(=O)CNC(=O)[C@H](CCC(N)=O)NC(=O)[C@H](C)N)C(=O)O | – | healthy human | intravenous, 30 mg/kg single dose | baseline: subjects | definitely drug-related adverse events | 0% |
| O=C1C(P(=O)(O)O)CCCN1O (stereo not drawn) | – | nude mice | intravenous, months, neutralized with NaOH | – | tolerated dose | 150 mg/kg/day |
| [11CH3]n1c(=O)n(CCCO)c(=O)c2c1nc(Oc1cccc(OC(F)(F)F)c1)n2Cc1ccc(Cl)cc1 | ex vivo biodistribution | Sprague Dawley rat, pancreas | 60 min post injection | – | tracer uptake | 0.94 ± 0.2 %ID/g |
| COC(=O)C[C@](O)(CCCC(C)(C)OC(C)=O)C(=O)O[C@@H]1C(OC)=C[C@]23CCCN2CCc2cc4c(cc2[C@H]13)OCO4 | – | CD1 mouse, liver | oral, 1 mg/kg, 0.5 h | – | tissue concentration | 167 ng/mL |
| CCCC[C@H]1C(=O)N(C)[C@@H](CCCC)C(=O)N[C@@H](CCCNC(=O)CN2CCN(CC(=O)O)CCN(CC(=O)O)CCN(CC(=O)O)CC2)C(=O)N[C@H](C(=O)NCC(N)=O)CSCC(=O)N[C@@H](Cc2ccc(O)cc2)C(=O)N(C)[C@@H](C)C(=O)N[C@@H](CC(N)=O)C(=O)N2CCC[C@H]2C(=O)N[C@@H](Cc2c[nH]cn2)C(=O)N[C@@H](CC(C)C)C(=O)N(C)CC(=O)N[C@@H](Cc2c[nH]c3ccccc23)C(=O)N[C@@H](CO)C(=O)N[C@@H](Cc2c[nH]c3ccccc23)C(=O)N1C [gallium-68 labelled] | static PET | NOD/SCID mice, CHO-hPD-L1 xenograft, CHO-hPD-L1 tumour | intravenous, 60 min post injection | – | tumour uptake | 5.8 ± 0.36 %ID/g |
| C[C@H]1N=C(c2ccccc2F)c2cc(Br)ccc2-n2cnc(C(=O)OC3O[C@H](C(=O)O)[C@@H](O)[C@H](O)[C@H]3O)c21 (stereo partly drawn) | LC-MS/MS | Swiss Webster mouse, female, urine | intraperitoneal, 750 µg parent drug, 24 to 48 h | – | cumulative excretion | 0.3 ± 0.2% |
| CCCCCCCCCCCCC(=O)O.O=C1CCCC2C3CCCN4CCCC(CN12)C34 (stereo not drawn) | electrical conductivity | water | 308.15 K, critical micelle concentration | – | standard entropy of micellization | 107 J/(mol·K) |
| OC1(C(F)(F)F)CCN(c2nc(Nc3ccnc(C(F)(F)F)c3)nc(-c3cccc(C(F)(F)F)n3)n2)C1 (stereo not drawn) | – | monkey, both sexes | oral | – | cardiovascular NOAEL | 50 mg/kg |
| CN[C@](C)(C[18F])C(=O)O | – | mouse, pancreas | 2 h, tumour-bearing | – | tracer uptake | 18 %ID/g |
| CNC(=O)c1cccc(-c2ccc(O[C@H]3O[C@H](CO)[C@@H](O)[C@H](O)[C@@H]3O)c(C)c2)c1 | – | rat | oral, 10 mg/kg, 10% cyclodextrin formulation | – | clearance | 98 mL/min/kg |
| N=C(N)NCc1ccc(C(=O)NCCCC[C@H](NC(=O)N[C@@H](CCC(=O)O)C(=O)O)C(=O)O)cc1[131I] | – | SCID mouse, PC-3 xenografts, lungs | 2 h | – | tissue uptake | 1.06 ± 0.15 %ID/g |
| COc1cc2c3c[n+]4c(cc3c3cc(OC)c(OC)c(OC)c3c2cc1OC)CCC4 | – | swine cells | 24 (unit not given) | – | CC50 | > 100 µM |
| COc1cc(-c2cncc(-c3ccc(C4CCN([11CH3])CC4)cc3)c2C)cc(OC)c1OC | dynamic PET | Sprague-Dawley rats male, whole brain | intravenous, 16 to 23 MBq | – | peak SUV | 0.9 |
| CC(C)C[C@@H](N)C(=O)NCC(=O)N[C@H](C)C(=O)N[C@H](CO)C(=O)N[C@H](Cc1c[nH]c2ccccc12)C(=O)N[C@H](Cc1c[nH]cn1)C(=O)N[C@H](CCCNC(=N)N)C(=O)N1CCC[C@@H]1C(=O)N[C@H](CC(=O)O)C(=O)N[C@H](CCCCN)C(=O)N[C@H](CS)C(=O)N[C@H](CS)C(=O)N[C@H](CC(C)C)C(=O)NCC(=O)N[C@H](Cc1ccc(O)cc1)C(=O)N[C@H](CCC(N)=O)C(=O)N[C@H](CCCCN)C(=O)N[C@H](CCCNC(=N)N)C(=O)N1CCC[C@@H]1C(=O)N[C@H](CC(C)C)C(=O)N1CCC[C@@H]1C(N)=O | LC-MS/MS | rat plasma | 25 ng/mL, 30 days, -80 °C, storage | – | measured concentration | 24.8 ± 3.2 ng/mL |
| COc1cc(NC(=O)C(=O)c2c(C)n(Cc3ccc(Cl)cc3)c3ccc(C)cc23)ccn1 | – | male cynomolgus monkey hepatocytes | 10 µM, 90 min | – | number of metabolites | 13 |
| CC(C)C[C@@H](NC(=O)[C@@H](CCCCN)NC(=O)CNC(=O)CNC(=O)[C@@H]1CSSC[C@H](N)C(=O)NCC(=O)N[C@@H](CCCNC(=N)N)C(=O)N[C@@H](CCCNC(=N)N)C(=O)N[C@@H](C)C(=O)NCC(=O)NCC(=O)N[C@@H](CO)C(=O)N1)C(=O)N[C@H](C)C(=O)N[C@H](CCCCN)C(=O)N[C@H](CC(C)C)C(=O)N[C@H](C)C(=O)N[C@H](CCCCN)C(=O)N[C@H](CCCCN)C(=O)N[C@H](CC(C)C)C(=O)N[C@H](C)C(=O)N[C@H](CCCCN)C(=O)N[C@H](CC(C)C)C(=O)N[C@H](C)C(=O)N[C@H](CCCCN)C(=O)O | – | human | weekly schedule | – | maximum tolerated dose | 20 to 30 mg/m² |

A few entries again:
| SMILES | test | system | setting | how to read | measurement | value |
| --- | --- | --- | --- | --- | --- | --- |
| COC(=O)C[C@](O)(CCCC(C)(C)OC(C)=O)C(=O)O[C@@H]1C(OC)=C[C@]23CCCN2CCc2cc4c(cc2[C@H]13)OCO4 | – | CD1 mouse, liver | oral, 1 mg/kg, 0.5 h | – | tissue concentration | 167 ng/mL |
